Published values from different studies.
A part holds a random share of what one study measured. Positions count from the first letter of the parent shown.

Block 1 — technique: DHFR PCA, deep sequencing; matrix: yeast; added: (+)-ABA 710 µM; baseline: wild-type fitted maximum; reading: higher = stronger binding; endpoint: relative binding score
Target: ABI1, truncated, D143A, DHFR fusion (Arabidopsis thaliana)
Setting: methotrexate growth selection, single substitutions
Parent: PYL1, truncated, DHFR fusion (Arabidopsis thaliana); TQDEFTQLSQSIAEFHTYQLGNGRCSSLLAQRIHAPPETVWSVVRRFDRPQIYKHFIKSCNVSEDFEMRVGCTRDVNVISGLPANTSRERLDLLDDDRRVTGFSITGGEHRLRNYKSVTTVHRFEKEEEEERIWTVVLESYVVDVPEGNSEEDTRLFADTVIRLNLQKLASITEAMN
L91S: 21%
L8T: 92.2%
R99G: 90.1%
N177P: 92.7%
E139R: 35.9%
H122F: 36.3%

Block 2 — technique: RNA Bind-n-Seq; form: RNA; matrix: in vitro; tested at: not given; baseline: input RNA pool; reading: higher = stronger binding; endpoint: bound/input enrichment
Target: RING finger protein unkempt homolog, zinc fingers 1-6, GST-SBP tag (UNK, Homo sapiens, UniProt Q9C0B0, residues 30-357)
Chain of UniProt Q9C0B0 (30-357, looked up): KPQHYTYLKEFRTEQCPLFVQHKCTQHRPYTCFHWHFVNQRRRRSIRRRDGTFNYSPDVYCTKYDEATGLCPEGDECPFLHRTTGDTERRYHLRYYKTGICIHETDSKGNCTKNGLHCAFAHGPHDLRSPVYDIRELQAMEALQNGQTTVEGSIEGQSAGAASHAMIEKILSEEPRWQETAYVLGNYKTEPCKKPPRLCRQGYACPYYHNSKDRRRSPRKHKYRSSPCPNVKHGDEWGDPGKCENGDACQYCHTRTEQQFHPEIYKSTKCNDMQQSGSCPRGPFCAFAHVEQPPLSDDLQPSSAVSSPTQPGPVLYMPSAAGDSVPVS
Setting: RNA with constant flanks, human and mouse sites, ends assumed
Shared flanks, not repeated: GGGAGUUCUACAGUCCGACGAUC … CAACAGAGGAUUGAGCAUCA
CAAGAACCAAUAUACACUGCAAACAUGAGGCCGUAUACCAUCAAUCUGUGAAUAAGAACAGGAUGCUGGAAGAGAGUGAAGCAAUACUCGGGUUAGAUGGGGUAGACAUGUGGGCUAUAU: 0.367 ratio
GGCCGCCGCCAGACCCCCGCUUCCAUGCGGUUCGGGUCCAAAAUGAUGCCGAUGUUCCUGACAGUUUACCUCAGUAACAGUGAGCAGCACUUCACAGAAGUUCCUGUUACCCCAGAGACA: 0.155 ratio
CCCAGCAGCGGACUCCGAGACCAGUAGACCUCGGCGAACCCUUGCUCUCGACCACCCACCCACUUUCGGAACCAUGGCCGCAGUGGCAGCAGCCUCGGCAGAACUGCUCAUCAUCGGCUG: 0.133 ratio
GUUAUCAUUUGUGUGGAAGGAAAAGAAUUUCCUUGCCAUAGAGCUGUGCUCUCAGCCUGUAGCAGCUACUUCAGAGCUAUGUUUUGUAAUGACCACAGGGAAAGCCGAGAAAUGUUGGUU: 0.206 ratio
GGCCGGAAGGGAUAAAACCGCAGUCGCCGGCCUCGCGGGGCUCACGGCCUCGCCUCGGUAUCGCAGCGGGUCCUCUCUAUCUAGCUCCAGCCUCUCGCCUGCGCCCCACUCCCCGCGUCC: 0.23 ratio
GUUGACAGCUUUGAUGACAUGAACCUCUCGGAGUCCCUUCUCCGUGGCAUCUACGCGUAUGGUUUUGAGAAGCCCUCUGCCAUCCAGCAGCGAGCCAUUCUACCUUGUAUCAAGGGUUAU: 0.21 ratio
GCCAGCCGGGAUGGAUAUCCAAUUAUUUUAUAUGAAAUUCCUUCUGGACGUUUCAUGAGAGAAUUGUGUGGCCACCUCAAUAUCAUUUAUGAUCUUUCCUGGUCAAAAGAUGAUCACUAC: 0.161 ratio

Block 3 — technique: RNA Bind-n-Seq; form: RNA; matrix: in vitro; tested at: 1 µM; setting: whole 134-nt RNA, ends assumed; added: 150 mM KCl; baseline: input library; reading: higher = stronger binding; endpoint: log2 enrichment
Target: Ras GTPase-activating protein-binding protein 1, C-terminal RGG region (G3BP1, Homo sapiens, UniProt Q13283)
Chain of UniProt Q13283 (whole entry, looked up): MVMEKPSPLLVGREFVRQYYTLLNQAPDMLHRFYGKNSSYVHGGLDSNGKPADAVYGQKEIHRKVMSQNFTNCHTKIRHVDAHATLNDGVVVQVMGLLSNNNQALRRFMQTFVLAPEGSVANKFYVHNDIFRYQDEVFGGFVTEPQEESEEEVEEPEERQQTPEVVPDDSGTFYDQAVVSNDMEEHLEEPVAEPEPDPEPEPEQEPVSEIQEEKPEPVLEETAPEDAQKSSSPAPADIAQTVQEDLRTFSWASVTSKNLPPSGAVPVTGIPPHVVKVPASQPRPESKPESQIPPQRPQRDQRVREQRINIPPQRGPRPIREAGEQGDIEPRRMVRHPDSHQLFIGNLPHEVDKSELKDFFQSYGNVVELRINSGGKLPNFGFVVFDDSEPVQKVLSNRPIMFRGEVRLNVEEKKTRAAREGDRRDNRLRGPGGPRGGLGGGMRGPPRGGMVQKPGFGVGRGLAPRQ
GGGAGUUCUACAGUCCGACGAUCUUCAGUUGGAUGGAUUUAUUGCUCGAAACUGGGCCAAUCAAAGAUCAGCUUUGGGAAGUGCUCUUGAUCCACUUGCUGAUAAAAUACUUAUGGAAUUCUCGGGUGUCAAGG: -1.52
GGGAGUUCUACAGUCCGACGAUCUGGCCCUGGUGGCAUGCGGGGAGGAAGAGGUGGCCUCAUGGAUCGUGGUGGUCCCGGUGGAAUUUUCAGAGGUGGCCGUGGUGGAGACAGUGGAAUUCUCGGGUGUCAAGG: 1.22
GGGAGUUCUACAGUCCGACGAUCAGUCCUGUGCUACACAUCGUAUGUACCGAAUCGGAAAAAAAGGAAAAAGGAAAAAGGAAAGUAUUAUGUUACGCCGUUCGGAUCUGCACUUGGAAUUCUCGGGUGUCAAGG: -2.1
GGGAGUUCUACAGUCCGACGAUCGCUGUUCUUGCCUUAGCUGCAUCUUGGACCUCAAGACAAGUAGGAGAACGGACGUUGACCGGUACGGUAAUAGACAGUGGAGAUGGUGUCUGGAAUUCUCGGGUGUCAAGG: -1.58

Further values, each from its own experiment
PhoQ, residues 284 288 289 292 302 303 SASVAL — fold induction (PhoP, residues 12 14 15 18 19 LWHVM (Escherichia coli, UniProt P23836); Sort-seq, item: YFP reporter; E. coli; PhoQ-PhoP variant library, added: 10 µM Mg2+; baseline: high Mg2+ state, higher = stronger signaling): 7.1

Some of these lines once more (block 2):
GCCAGCCGGGAUGGAUAUCCAAUUAUUUUAUAUGAAAUUCCUUCUGGACGUUUCAUGAGAGAAUUGUGUGGCCACCUCAAUAUCAUUUAUGAUCUUUCCUGGUCAAAAGAUGAUCACUAC: 0.161 ratio
